# Experimental data gathered from unrelated publications.
# ± gives the spread as reported.
# Chain of UniProt P0C061 (whole entry, looked up): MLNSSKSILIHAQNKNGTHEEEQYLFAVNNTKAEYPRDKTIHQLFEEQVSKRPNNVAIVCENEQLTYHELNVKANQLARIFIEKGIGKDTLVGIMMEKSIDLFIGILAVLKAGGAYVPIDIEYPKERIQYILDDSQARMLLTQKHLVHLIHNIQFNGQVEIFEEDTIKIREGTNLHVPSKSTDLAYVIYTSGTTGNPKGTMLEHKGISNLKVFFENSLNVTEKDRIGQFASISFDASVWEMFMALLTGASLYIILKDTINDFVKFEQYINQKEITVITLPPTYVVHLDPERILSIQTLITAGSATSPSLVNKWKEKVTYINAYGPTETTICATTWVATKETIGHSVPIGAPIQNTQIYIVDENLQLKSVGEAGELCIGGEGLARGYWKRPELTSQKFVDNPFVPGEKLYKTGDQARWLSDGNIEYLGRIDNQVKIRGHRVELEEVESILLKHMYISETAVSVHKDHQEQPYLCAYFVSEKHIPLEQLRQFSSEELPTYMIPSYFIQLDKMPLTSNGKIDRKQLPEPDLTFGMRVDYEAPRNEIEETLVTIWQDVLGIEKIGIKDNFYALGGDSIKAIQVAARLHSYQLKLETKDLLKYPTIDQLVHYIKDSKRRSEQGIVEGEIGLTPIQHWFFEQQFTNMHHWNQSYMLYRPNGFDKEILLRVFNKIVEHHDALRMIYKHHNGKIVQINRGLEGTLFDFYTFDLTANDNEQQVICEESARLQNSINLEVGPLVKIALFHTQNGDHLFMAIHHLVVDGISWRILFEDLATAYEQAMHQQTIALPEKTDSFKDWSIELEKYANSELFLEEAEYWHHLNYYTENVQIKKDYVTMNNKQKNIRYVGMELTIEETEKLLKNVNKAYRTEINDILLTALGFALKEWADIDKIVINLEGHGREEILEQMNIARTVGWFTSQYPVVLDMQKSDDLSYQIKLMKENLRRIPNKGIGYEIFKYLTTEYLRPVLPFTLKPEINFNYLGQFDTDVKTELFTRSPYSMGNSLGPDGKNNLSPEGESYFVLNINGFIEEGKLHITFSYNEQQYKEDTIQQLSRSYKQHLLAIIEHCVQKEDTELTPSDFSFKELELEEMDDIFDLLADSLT
# Chain of UniProt Q96PD5 (whole entry, looked up): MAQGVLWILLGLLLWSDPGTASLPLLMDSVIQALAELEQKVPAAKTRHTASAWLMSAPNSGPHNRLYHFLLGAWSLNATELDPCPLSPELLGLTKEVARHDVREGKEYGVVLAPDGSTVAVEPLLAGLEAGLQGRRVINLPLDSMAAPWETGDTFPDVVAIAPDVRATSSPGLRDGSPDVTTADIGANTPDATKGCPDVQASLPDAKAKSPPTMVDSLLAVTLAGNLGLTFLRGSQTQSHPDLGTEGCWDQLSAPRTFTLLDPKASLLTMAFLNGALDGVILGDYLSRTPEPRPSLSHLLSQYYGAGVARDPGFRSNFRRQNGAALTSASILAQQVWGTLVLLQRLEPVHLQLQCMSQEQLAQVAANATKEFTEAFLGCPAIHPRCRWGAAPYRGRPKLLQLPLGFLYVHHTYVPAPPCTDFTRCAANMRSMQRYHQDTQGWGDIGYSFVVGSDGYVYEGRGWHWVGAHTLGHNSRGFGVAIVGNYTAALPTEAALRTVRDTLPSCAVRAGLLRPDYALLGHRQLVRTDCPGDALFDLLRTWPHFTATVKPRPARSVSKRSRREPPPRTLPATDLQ
# Chain of UniProt Q9HC29 (whole entry, looked up): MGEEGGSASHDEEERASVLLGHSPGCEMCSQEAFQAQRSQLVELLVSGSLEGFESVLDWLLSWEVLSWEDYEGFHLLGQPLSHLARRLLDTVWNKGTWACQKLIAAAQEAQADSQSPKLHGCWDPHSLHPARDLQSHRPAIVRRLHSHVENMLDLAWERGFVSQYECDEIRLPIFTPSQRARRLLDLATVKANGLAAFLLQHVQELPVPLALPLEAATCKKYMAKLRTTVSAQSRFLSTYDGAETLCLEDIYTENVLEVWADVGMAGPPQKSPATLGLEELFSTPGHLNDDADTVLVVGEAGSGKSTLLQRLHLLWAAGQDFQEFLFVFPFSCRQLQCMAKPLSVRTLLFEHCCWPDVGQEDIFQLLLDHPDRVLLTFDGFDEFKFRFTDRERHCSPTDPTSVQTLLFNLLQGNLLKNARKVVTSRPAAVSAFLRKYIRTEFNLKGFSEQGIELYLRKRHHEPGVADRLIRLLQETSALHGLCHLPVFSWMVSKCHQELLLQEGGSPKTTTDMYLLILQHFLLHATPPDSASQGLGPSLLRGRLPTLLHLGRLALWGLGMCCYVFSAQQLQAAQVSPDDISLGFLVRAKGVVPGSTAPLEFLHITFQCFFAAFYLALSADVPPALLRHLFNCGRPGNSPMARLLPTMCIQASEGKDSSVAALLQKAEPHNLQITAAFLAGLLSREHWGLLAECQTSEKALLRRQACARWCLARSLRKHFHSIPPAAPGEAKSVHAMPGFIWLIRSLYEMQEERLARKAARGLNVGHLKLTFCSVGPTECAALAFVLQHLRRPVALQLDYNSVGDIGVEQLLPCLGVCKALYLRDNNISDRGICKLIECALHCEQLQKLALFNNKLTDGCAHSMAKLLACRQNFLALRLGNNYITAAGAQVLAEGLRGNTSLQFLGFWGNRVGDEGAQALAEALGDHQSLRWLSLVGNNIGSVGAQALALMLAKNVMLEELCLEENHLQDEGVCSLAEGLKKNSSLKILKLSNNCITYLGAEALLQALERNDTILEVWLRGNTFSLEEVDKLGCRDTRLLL
# Chain of UniProt O43918 (whole entry, unmodified, looked up): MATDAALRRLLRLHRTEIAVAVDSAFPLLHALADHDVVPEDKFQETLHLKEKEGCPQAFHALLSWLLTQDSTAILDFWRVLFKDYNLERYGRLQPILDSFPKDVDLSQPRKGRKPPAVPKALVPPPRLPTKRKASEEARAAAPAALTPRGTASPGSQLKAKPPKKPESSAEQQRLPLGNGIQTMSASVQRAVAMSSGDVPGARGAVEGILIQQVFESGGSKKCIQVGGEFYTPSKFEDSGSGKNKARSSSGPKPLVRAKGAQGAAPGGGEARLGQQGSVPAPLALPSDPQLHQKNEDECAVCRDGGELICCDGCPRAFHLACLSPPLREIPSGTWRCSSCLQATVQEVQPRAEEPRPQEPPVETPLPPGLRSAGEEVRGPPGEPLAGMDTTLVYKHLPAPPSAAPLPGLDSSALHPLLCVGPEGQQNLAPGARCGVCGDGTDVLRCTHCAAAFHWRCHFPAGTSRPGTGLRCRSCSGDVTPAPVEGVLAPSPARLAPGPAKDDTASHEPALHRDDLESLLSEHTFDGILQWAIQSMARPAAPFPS
# Chain of UniProt O14796 (whole entry, looked up): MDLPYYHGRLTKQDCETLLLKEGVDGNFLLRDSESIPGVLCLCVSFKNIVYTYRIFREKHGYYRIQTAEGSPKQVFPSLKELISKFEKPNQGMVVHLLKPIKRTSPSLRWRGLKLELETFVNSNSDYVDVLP
# Chain of UniProt O14965 (whole entry, looked up): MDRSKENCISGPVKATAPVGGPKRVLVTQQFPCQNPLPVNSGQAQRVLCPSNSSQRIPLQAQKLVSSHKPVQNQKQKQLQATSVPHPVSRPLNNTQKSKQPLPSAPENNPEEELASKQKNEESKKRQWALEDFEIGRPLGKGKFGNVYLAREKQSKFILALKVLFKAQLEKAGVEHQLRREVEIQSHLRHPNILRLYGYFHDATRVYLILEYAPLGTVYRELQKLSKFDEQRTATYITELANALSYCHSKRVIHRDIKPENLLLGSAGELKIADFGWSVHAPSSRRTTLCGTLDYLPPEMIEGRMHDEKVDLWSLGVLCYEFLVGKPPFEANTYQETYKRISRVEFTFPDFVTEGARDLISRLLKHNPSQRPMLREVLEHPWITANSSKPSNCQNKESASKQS
# Chain of UniProt P32249 (whole entry, looked up): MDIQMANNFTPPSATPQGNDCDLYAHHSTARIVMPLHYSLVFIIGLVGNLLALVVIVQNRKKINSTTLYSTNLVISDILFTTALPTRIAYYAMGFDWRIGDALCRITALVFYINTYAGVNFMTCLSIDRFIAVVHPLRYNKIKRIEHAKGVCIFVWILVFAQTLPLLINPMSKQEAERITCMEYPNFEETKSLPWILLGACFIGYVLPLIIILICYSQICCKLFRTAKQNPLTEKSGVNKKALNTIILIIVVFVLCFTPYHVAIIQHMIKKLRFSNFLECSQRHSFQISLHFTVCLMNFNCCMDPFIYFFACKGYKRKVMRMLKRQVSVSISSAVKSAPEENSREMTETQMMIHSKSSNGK
# Chain of UniProt P0A7J3 (whole entry, looked up): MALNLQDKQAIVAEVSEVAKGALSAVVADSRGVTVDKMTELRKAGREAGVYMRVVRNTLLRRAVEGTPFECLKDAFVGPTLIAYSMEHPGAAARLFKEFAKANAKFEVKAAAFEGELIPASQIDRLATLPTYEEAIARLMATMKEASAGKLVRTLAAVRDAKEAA
# Chain of UniProt Q9Y657 (whole entry, looked up): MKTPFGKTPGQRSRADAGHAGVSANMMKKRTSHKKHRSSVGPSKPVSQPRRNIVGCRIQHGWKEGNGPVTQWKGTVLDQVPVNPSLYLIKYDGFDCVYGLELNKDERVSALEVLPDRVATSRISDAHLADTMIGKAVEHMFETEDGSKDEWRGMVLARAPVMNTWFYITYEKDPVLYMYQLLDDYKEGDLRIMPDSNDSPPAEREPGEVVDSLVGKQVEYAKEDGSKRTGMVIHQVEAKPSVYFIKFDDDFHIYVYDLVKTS
SMILES,tested on,assay,system,setting,quantity,value
NC(Cc1ccc(F)cc1F)C(=O)O (racemic),"grsA (Aneurinibacillus migulanus, UniProt P0C061)","binding, ITC",,,Kd,420 µM
C[C@H](N)C(=O)N[C@@H](CCCNC(=N)N)C(=O)N[C@H](C(=O)N[C@@H](CCCC[N+](C)(C)C)C(=O)N[C@@H](CCC(N)=O)C(=O)N[C@H](C(=O)N[C@@H](C)C(=O)N[C@@H](CCCNC(=N)N)C(=O)N[C@@H](CCCCN)C(=O)N[C@@H](CO)C(=O)O)[C@@H](C)O)[C@@H](C)O,"Autoimmune regulator, PHD1 domain (AIRE, Homo sapiens, UniProt O43918, D297A)",tryptophan fluorescence titration,,"pH 6.3, 20 °C",Kd,> 500 µM
O=C(N/N=C/c1ncc[nH]1)c1cccs1,"1-deoxy-D-xylulose-5-phosphate synthase (dxs, Deinococcus radiodurans, UniProt Q9RUB5)","binding, SPR",,,Kd,8 µM
Cc1cccc(-c2cccc(C)n2)n1.Cc1cccc(-c2cccc(C)n2)n1.[Cl-].[Cl-].[Ru+2].c1ccc(-c2ccnc3c2ccc2c(-c4ccccc4)ccnc23)cc1,,"DNA binding, agarose gel electrophoresis",pUC19 plasmid DNA,"photoactivated 40 J/cm^2, λ>400 nm, with: pUC19 40 µg/mL",EC50,< 7.8 µM
O=C(/C=C/c1ccc(Cl)cc1)N1CCC2(CC1)CN(Cc1ccc(Cl)c(Cl)c1)C(=O)O2,"G-protein coupled receptor 183 (GPR183, Homo sapiens, UniProt P32249)","antagonist, Schild analysis",,"with: 7α,25-OHC",Kd,0.064 µM
Cc1ccc(CCN2COc3c(cc(F)c4cccnc34)C2)cc1,"Large ribosomal subunit protein uL10 (rplJ, Escherichia coli, UniProt P0A7J3)",binding,,,Kd,6.7 µM
CN1C(=O)[C@@H](Cc2ccc(O)cc2)NC(=O)CNC(=O)[C@H](Cc2ccc3ccccc3c2)NC(=O)[C@H](CCCNC(=N)N)NC(=O)[C@H]1CCCNC(=O)c1ccc(CNC(=O)CN2CCN(CC(=O)O)CCN(CC(=O)O)CCN(CC(=O)O)CC2)cc1 [gallium-68 labelled],,,"SCID mice, lymphoma xenograft, liver","intravenous, 1 h",tissue uptake,2.3 ± 0.3 %ID/g
N=C(CCl)NCCNc1c2c(c(NCCNC(=N)CCl)c3sccc13)C(=O)c1ccccc1C2=O,"Aurora kinase A (AURKA, Homo sapiens, UniProt O14965)","binding, tryptophan fluorescence quenching",,"pH 7.5, 25 °C, AurA 3.0 µM",Kd,33.2 ± 4.6 µM
CCCC[C@@H]1NC(=O)[C@H](Cc2ccc(O)cc2)NC(=O)[C@@H]2CCCN2C(=O)[C@H](CC(=O)O)NC(=O)[C@H](C)NC(=O)[C@H](Cc2ccccc2)NC(=O)[C@@H]2CSCCC(=O)N3CN(CN(C3)C(=O)CCSC[C@@H](C(=O)N[C@@H](C)C(N)=O)NC1=O)C(=O)CCSC[C@H](NC(C)=O)C(=O)N[C@@H](CC(C)(C)C)C(=O)N1CCC[C@H]1C(=O)N[C@@H](CCC(=O)O)C(=O)N[C@H](CCCCNC(=O)CCc1cn(CCOCCOCCOCCN(CCOCCOCCOCCC(=O)N[C@H]3CSCCC(=O)N4CN5CN(C4)C(=O)CCSC[C@H](NC(=O)[C@@H](CC(=O)O)NC(=O)[C@H](Cc4cccc6ccccc46)NC(=O)[C@@H]4CCCN4C3=O)C(=O)N[C@@H](CCSC)C(=O)N[C@@H](CCCCNC(=N)N)C(=O)N[C@@H](CC(=O)O)C(=O)N[C@@H](Cc3c[nH]c4ccccc34)C(=O)N[C@@H](CO)C(=O)N[C@@H]([C@@H](C)O)C(=O)N3CCC[C@H]3C(=O)N3C[C@H](O)C[C@H]3C(=O)N[C@@H](Cc3c[nH]c4ccccc34)C(=O)N[C@H](C(N)=O)CSCCC5=O)CCOCCOCCOCCn3cc(CCC(=O)NCCCC[C@H]4NC(=O)[C@H](CCC(=O)O)NC(=O)[C@@H]5CCCN5C(=O)[C@H](CC(C)(C)C)NC(=O)[C@@H](NC(C)=O)CSCCC(=O)N5CN6CN(C5)C(=O)CCSC[C@H](NC(=O)[C@H](Cc5ccc(O)cc5)NC(=O)[C@@H]5CCCN5C4=O)C(=O)N[C@@H](Cc4ccccc4)C(=O)N[C@@H](C)C(=O)N[C@@H](CC(=O)O)C(=O)N4CCC[C@H]4C(=O)N[C@@H](Cc4ccc(O)cc4)C(=O)N[C@@H](CCCC)C(=O)N[C@H](C(=O)N[C@@H](C)C(N)=O)CSCCC6=O)nn3)nn1)C(=O)N1CCC[C@H]1C(=O)N[C@@H](Cc1ccc(O)cc1)C(=O)N2,"CD137, rat",SPR,,with: captured on human Nectin-4,Kd,no binding
N=C(N)NCCC[C@@H]1NC(=O)[C@H](Cc2c[nH]c3ccccc23)NC(=O)[C@@H](CC2CCCCC2)NC(=O)[C@@H]2CCCN2C(=O)[C@@H](NC(=O)CCc2ccccc2)CCCNC1=O,,,"C57BL/6J mouse, plasma plasma","oral, 1 mg/kg single dose",MRT(0-last),37.7 min
C=CC(=O)Nc1cc(Nc2nccc(-c3cn(C)c4ccccc34)n2)c(OCC(F)(F)F)nc1N(C)CCN(C)C,"Cytochrome P450 2E1 (CYP2E1, Homo sapiens, UniProt P05181)","substrate, LC-MS",recombinant enzyme,"3 µM, 60 min",remaining compound,95%
O=C(Nc1ccccc1O)c1ccc(-c2ccc(Cl)cc2Cl)o1,"Heat shock protein 90, N-terminal domain (Plasmodium falciparum, UniProt Q8IC05)","binding, SPR",,,Kd,2.45 µM
CC[C@H](C)[C@H](NC(=O)[C@H](Cc1ccc(O)cc1)NC(=O)[C@@H](NC(=O)[C@H](Cc1ccc(OP(=O)(O)O)cc1)NC(=O)[C@H](CC(N)=O)NC(=O)[C@H](CC(N)=O)NC(=O)CNC(=O)[C@@H](N)CC(N)=O)C(C)C)C(=O)N[C@@H](CC(=O)O)C(=O)N1CCC[C@H]1C(=O)N[C@H](C(=O)N[C@@H](CCC(N)=O)C(=O)N[C@@H](CC(=O)O)C(=O)O)[C@@H](C)O,"SH2 domain-containing protein 1B, SH2 domain (SH2D1B, Homo sapiens, UniProt O14796)","binding, fluorescence polarization",,phosphopeptide probe,Kd,~1 µM
CCC(=O)N(C)c1ccc(Cl)c(Cl)c1,CHO-WBL,,,"0.063 mg/mL, 3 h, with S9 activation",cells with one aberration,0%
COc1cc(C2CC(=O)Nc3nc(N)[nH]c(=O)c32)ccc1O (stereo not shown),"uncharacterized protein (Leishmania donovani, UniProt A0A3Q8IA09)",competitive ITC,,with: aspartate 60 µM,Kd,5.2 µM
C[C@H](N)C(=O)N[C@@H](CCCNC(=N)N)C(=O)N[C@H](C(=O)N[C@@H](CCCC[N+](C)(C)C)C(=O)N[C@@H](CCC(N)=O)C(=O)N[C@H](C(=O)N[C@@H](C)C(=O)N[C@@H](CCCNC(=N)N)C(=O)N[C@@H](CCCCN)C(=O)N[C@@H](CO)C(=O)O)[C@@H](C)O)[C@@H](C)O,"Spindlin-1 (SPIN1, Homo sapiens, UniProt Q9Y657)","binding, ITC",,pH 7.5,Kd,0.147 µM
COC(=O)CC[C@H](NC(=O)[C@H](C)NC(=O)[C@@H](C)O[C@H]1[C@H](O)[C@@H](CN)OC(O)[C@@H]1NC(C)=O)C(N)=O (stereo partly shown),"Nucleotide-binding oligomerization domain-containing protein 2 (NOD2, Homo sapiens, UniProt Q9HC29)","binding, SPR",,pH 6.5,Kd,0.012 to 0.024 µM
O=c1c(OS(=O)(=O)O)c(-c2ccc(OS(=O)(=O)O)c(OS(=O)(=O)O)c2)oc2cc(OS(=O)(=O)O)cc(OCCCOc3cc(OS(=O)(=O)O)cc4oc(-c5ccc(OS(=O)(=O)O)c(OS(=O)(=O)O)c5)c(OS(=O)(=O)O)c(=O)c34)c12,"N-acetylmuramoyl-L-alanine amidase (PGLYRP2, Homo sapiens, UniProt Q96PD5)",microscale thermophoresis,,,Kd,36.9 µM
[64Cu+2].c1ccc(CNCc2ccc(CN3CCCN4CCNCCCN(CC4)CC3)cc2)nc1,CXCR4,,"NOD/SCID mouse, U87 and U87-stb-CXCR4 xenografts, bladder","iv, 90 min, no blocking dose, ex vivo",tissue uptake,1.11 ± 0.07 %ID/g

# Repeated from above:
SMILES,tested on,assay,system,setting,quantity,value
C=CC(=O)Nc1cc(Nc2nccc(-c3cn(C)c4ccccc34)n2)c(OCC(F)(F)F)nc1N(C)CCN(C)C,"Cytochrome P450 2E1 (CYP2E1, Homo sapiens, UniProt P05181)","substrate, LC-MS",recombinant enzyme,"3 µM, 60 min",remaining compound,95%
